Results of several laboratories.
Every numbered part comes from another study and shows a few of its results, in no order. Changes are numbered by the printed parent chain.

Set 1 — method: protein-binding microarray; form: double-stranded DNA, one strand shown; matrix: in vitro; tested at: 250 nM; notes: 60-bp whole probe; together with: salmon DNA 0.4 mg/ml; relative to: random background probes; direction: higher = stronger binding; constant ends, left off below: GCCTAGCAC … GTCTTGATTCGCTTGACGCTGCTG
Target: Interferon regulatory factor 5, full length, phosphomimetic (IRF5, Homo sapiens, UniProt Q13568-2, residues 1-514, K96S/S451D/S453D/S456D/S462D)
For `GAAGATATCGGGACTGGAGACGTGCTA`, the log fluorescence was 0.531 z-score.
`TACGGTTCCCTTTTCCTGACGTGCTAG` gave a log fluorescence of 0.446 z-score.
`GACGATTTCAGTCTGGAGACGTGCTAG` has a log fluorescence of 1.08 z-score.
With `TTAGATATCGGGGTTCGATTAGTGCTA` the log fluorescence was 1.38 z-score.
With `TTTTACATTTTAAGAAATGTGTGCTAG` the log fluorescence was 1.23 z-score.
For `TTAGGTCTCGGATTCGGTTAGTGCTAG`, the log fluorescence was 0.37 z-score.
`GAGGGGGCAGGGACTCAGGGGTGCTAG` has a log fluorescence of 0.36 z-score.
`TTAGAACTGAGCCTGGATTAGTGCTAG` gave a log fluorescence of -0.463 z-score.
The log fluorescence of `GACGATCCCAGTATCGAGACGTGCTAG` is reported as 1.74 z-score.
For `GACAGTTCCCTTTTCCTGACGTGCTAG`, the log fluorescence was 0.333 z-score.
For `CTAGATCTCAGTTTCGATTAGTGCTAG`, the log fluorescence was 9.07 z-score.
`TTAGGTTTCCTTTCCCTTAAGTGCTAG` has a log fluorescence of 2.07 z-score.
`GACTGTTTCCTTTTCCTGACGTGCTAG` gave a log fluorescence of 1.45 z-score.
With `CTTAACCTGGGTCTCTGAAGGTGCTAG` the log fluorescence was -0.384 z-score.
For `TTAGCTCTCCTTATCCTTTAGTGCTAG`, the log fluorescence was 0.223 z-score.
`GACGAACTGCGGACTGGAGACGTGCTA` gave a log fluorescence of -0.6 z-score.
For `CCCACCATCTAGTTCTGCTTGTGCTAG`, the log fluorescence was 0.00717 z-score.
`TGTGCATGTGTGTTTTCTGCGTGCTAG` gave a log fluorescence of 0.172 z-score.
`TTAGAGCTCAGACTGGATTAGTGCTAG` gave a log fluorescence of -0.363 z-score.
With `GGTTTTCTCTGGTTCTTGCTGTGCTAG` the log fluorescence was 0.758 z-score.
The log fluorescence of `TCACAGTTGAGTTCTGTTACTGTGCTA` is reported as 0.155 z-score.
`TCCATTTTCTAAATTCCCTAGTGCTAG` gave a log fluorescence of 1.09 z-score.
`GACGGACTCGGGACTGGGGACGTGCTA` gave a log fluorescence of -0.457 z-score.

Set 2 — target: ATF7, bZIP domain (human); method: DHFR protein complementation; matrix: yeast; relative to: wild-type JUN-FOS pair; direction: higher = stronger binding
Notes: single substitutions, most at no-binding floor
Starting sequence: JUN, bZIP domain (human); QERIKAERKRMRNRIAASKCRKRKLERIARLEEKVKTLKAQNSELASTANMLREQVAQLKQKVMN; partner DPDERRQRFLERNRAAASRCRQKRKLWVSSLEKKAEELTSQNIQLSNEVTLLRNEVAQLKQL
`Q41E` gave a binding fitness of -0.779 natural log.
`A46R` has a binding fitness of -0.785 natural log.
`K34R` gave a binding fitness of -0.748 natural log.
`E44D` has a binding fitness of -1.05 natural log.
The binding fitness of `S43I` is reported as -0.929 natural log.
For `K39W`, the binding fitness was -1.32 natural log.
The binding fitness of `R53F` is reported as -1.53 natural log.
For `E32N`, the binding fitness was -1.4 natural log.
The binding fitness of `T48I` is reported as -1.02 natural log.
For `S47W`, the binding fitness was -0.989 natural log.
For `K36H`, the binding fitness was -1.1 natural log.
For `Q41D`, the binding fitness was -1.28 natural log.
The binding fitness of `Q55A` is reported as -1.12 natural log.
The binding fitness of `E32L` is reported as -0.832 natural log.
`V56S` has a binding fitness of -1.48 natural log.
The binding fitness of `R53A` is reported as -1.36 natural log.
For `T37A`, the binding fitness was -0.812 natural log.
With `K36M` the binding fitness was -0.817 natural log.
`I28M` gave a binding fitness of -1.09 natural log.
`L38E` gave a binding fitness of -1.59 natural log.
`K39A` gave a binding fitness of -1.02 natural log.
The binding fitness of `E33V` is reported as -1.2 natural log.
The binding fitness of `Q55E` is reported as -0.867 natural log.
The binding fitness of `K34V` is reported as -1.12 natural log.
`A49F` gave a binding fitness of -1.45 natural log.

Set 3 — method: protein-binding microarray; form: double-stranded DNA, one strand shown; matrix: in vitro; tested at: 0.8 µM; notes: whole 60-bp probe, no competitor; direction: higher = stronger binding; constant ends, left off below: … GTCTTGATTCGCTTGACGCTGCTG
Target: Centromere-binding protein 1, full length, N-terminal tag (CBF1, Saccharomyces cerevisiae, UniProt P17106, residues 1-351)
Sequence of UniProt P17106 (whole entry, looked up): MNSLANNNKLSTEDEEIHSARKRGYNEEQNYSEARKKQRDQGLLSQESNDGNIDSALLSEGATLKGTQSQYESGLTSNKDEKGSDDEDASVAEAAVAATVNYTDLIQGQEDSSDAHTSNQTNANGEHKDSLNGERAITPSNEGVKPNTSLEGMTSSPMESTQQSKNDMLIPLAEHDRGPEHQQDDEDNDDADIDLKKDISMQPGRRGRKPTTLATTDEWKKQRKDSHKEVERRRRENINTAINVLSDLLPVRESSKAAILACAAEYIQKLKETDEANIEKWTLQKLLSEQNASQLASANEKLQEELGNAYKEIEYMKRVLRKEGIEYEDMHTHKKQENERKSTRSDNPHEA
With `GAATGTACTTAGCGTCACGCGCTATGGAAATATTAG` the fluorescence intensity was 1940 a.u.
With `GAAGAGAACTTTAGCGTCACCAGTTACTGCGACTAG` the fluorescence intensity was 501 a.u.
For `GAATATTCGGATGTGCATATCACGTTCGGATCTTAG`, the fluorescence intensity was 846 a.u.
`GAAAGGACATTATCACTCATCACCATGAACATTTAG` gave a fluorescence intensity of 528 a.u.
The fluorescence intensity of `GAACAACATGCAAGTCACGAAATGACGAATGAATAG` is reported as 600 a.u.
`GAAGGTATTAGCATGCACGTTTTCTTTCCTTTGTAG` has a fluorescence intensity of 783 a.u.
For `GAATTGTCATACTGACGTGTACCACTCTGAGAATAG`, the fluorescence intensity was 574 a.u.
`GAAATTTTTGCTACACACGTTTATCCATTGAATTAG` has a fluorescence intensity of 580 a.u.
With `TGTACGAAGCTATGATACGTGCTTATAGTAGTTAGG` the fluorescence intensity was 536 a.u.
With `CTAAAACCCTACCGTCATCATATGAAATATCAATTC` the fluorescence intensity was 499 a.u.
The fluorescence intensity of `CTAGAACCTAGCAAGGACGTCACCTGGACTCCTTTC` is reported as 858 a.u.
The fluorescence intensity of `GAATATGACTACTACGTGATGGTCGATAGTTGATAG` is reported as 569 a.u.
`CTAGGTGGACGCCCCCACGAGTCAGTGTTTCTGTTC` gave a fluorescence intensity of 486 a.u.
`CTAGTGAAAATAGATCTGCTGATAAATAATGCATTC` has a fluorescence intensity of 847 a.u.
`CTACACATGATTCACCTGATTACGACTCACTATTTC` gave a fluorescence intensity of 786 a.u.
With `GAATGATATTACTCAAATGTGTCACAATTTCAATAG` the fluorescence intensity was 566 a.u.
With `GAACAACCGGAAGGGGAGATCACAGACCTTGACTAG` the fluorescence intensity was 512 a.u.

Set 4 — method: RNA Bind-n-Seq; form: RNA; matrix: in vitro; tested at: 200 nM; notes: whole 134-nt RNA, ends assumed; together with: 150 mM LiCl; relative to: input library; direction: higher = stronger binding; library: 7-deaza-guanosine replaces G
Target: Fragile X messenger ribonucleoprotein 1, C-terminal low-complexity region (Fmr1, Mus musculus, UniProt P35922)
Constant ends, left off below: GGGAGUUCUACAGUCCGACGAUC … UGGAAUUCUCGGGUGUCAAGG
The log2 enrichment of `CCUGUGCUACACAUCGUAUGUACCGAAUCGGGGAAAAAGGGGAAAAAAAGGGGUUUGGGGAAAGUAUUAUGUUACGCCGUUCGGAUCUGC` is reported as -0.787.
With `UGACCCUGGUGGCAUGCGGGGAGGAAGAGGUGGCCUCAUGGAUCGUGGUGGUCCCGGUGGAAUGUUCAGAGGUGGCCGUGGUGGAGACAG` the log2 enrichment was -0.431.
`CCUGUGCUACACAUCGUAUGUACCGAAUCGGGGUUUGGGGUUUUUGGGGAAAAAAAGGGGAAAGUAUUAUGUUACGCCGUUCGGAUCUGC` gave a log2 enrichment of -0.684.
For `UGGCCUGCACAUUCAGCUGCAUGAUGAAGUUCACUGUCAAGGACUGUGAUCCCACCACUGGGGAGACUGAUGACGAAGGCUAUGAGGAUG`, the log2 enrichment was -2.84.
`CACAAACAACACGCACCCACACAGACACAGAGGGAAGGGGUUGGGAUGGGGACAGGGUGCACAGCAGGGCGGGGUAGGACCCCAGCCCCU` gave a log2 enrichment of 0.582.
For `UCCUCAAGUCCUGUGCUACACAUCGUAUGUACCGAAUCGGAGGAGGGGAGGGAAAGUAUUAUGUUACGCCGUUCGGAUCUGCACUUCCAG`, the log2 enrichment was -1.46.
`CCUGUGCUACACAUCGUAUGUACCGAAUCGGAAAAAAAGGGAAAAAAAGGAAAAAAAGGGGAAAGUAUUAUGUUACGCCGUUCGGAUCUG` gave a log2 enrichment of -0.226.
`AAGUCCUGUGCUACACAUCGUAUGUACCGAAUCGGAAAAAGGUUUGGUUUUUUUGGAAAGUAUUAUGUUACGCCGUUCGGAUCUGCACUU` has a log2 enrichment of -2.83.
`AAGUCCUGUGCUACACAUCGUAUGUACCGAAUCGGGUGGGAAAGGGAAAAAAAGGGAAAGUAUUAUGUUACGCCGUUCGGAUCUGCACUU` gave a log2 enrichment of -0.124.
For `CCUGUGCUACACAUCGUAUGUACCGAAUCGGCCCCCCCGGGGCCCCCCCGGCCCCCCCGGAAAGUAUUAUGUUACGCCGUUCGGAUCUGC`, the log2 enrichment was 0.962.
The log2 enrichment of `CACAGACAACACGCACCCACACAGACACAGAGGGAAGGGGUUGGGAUAAAGACAGGGUGCACAGCAGGGCGGGGUAGGACCCCAGCCCCU` is reported as 0.36.

Set 5 — method: universal PBM; form: double-stranded DNA, one strand shown; matrix: in vitro; tested at: 600 nM; direction: higher = stronger binding
Target: Sal-like protein 4, full length isoform A (SALL4, Homo sapiens, UniProt Q9UJQ4, residues 1-1053)
Sequence of UniProt Q9UJQ4 (whole entry, looked up): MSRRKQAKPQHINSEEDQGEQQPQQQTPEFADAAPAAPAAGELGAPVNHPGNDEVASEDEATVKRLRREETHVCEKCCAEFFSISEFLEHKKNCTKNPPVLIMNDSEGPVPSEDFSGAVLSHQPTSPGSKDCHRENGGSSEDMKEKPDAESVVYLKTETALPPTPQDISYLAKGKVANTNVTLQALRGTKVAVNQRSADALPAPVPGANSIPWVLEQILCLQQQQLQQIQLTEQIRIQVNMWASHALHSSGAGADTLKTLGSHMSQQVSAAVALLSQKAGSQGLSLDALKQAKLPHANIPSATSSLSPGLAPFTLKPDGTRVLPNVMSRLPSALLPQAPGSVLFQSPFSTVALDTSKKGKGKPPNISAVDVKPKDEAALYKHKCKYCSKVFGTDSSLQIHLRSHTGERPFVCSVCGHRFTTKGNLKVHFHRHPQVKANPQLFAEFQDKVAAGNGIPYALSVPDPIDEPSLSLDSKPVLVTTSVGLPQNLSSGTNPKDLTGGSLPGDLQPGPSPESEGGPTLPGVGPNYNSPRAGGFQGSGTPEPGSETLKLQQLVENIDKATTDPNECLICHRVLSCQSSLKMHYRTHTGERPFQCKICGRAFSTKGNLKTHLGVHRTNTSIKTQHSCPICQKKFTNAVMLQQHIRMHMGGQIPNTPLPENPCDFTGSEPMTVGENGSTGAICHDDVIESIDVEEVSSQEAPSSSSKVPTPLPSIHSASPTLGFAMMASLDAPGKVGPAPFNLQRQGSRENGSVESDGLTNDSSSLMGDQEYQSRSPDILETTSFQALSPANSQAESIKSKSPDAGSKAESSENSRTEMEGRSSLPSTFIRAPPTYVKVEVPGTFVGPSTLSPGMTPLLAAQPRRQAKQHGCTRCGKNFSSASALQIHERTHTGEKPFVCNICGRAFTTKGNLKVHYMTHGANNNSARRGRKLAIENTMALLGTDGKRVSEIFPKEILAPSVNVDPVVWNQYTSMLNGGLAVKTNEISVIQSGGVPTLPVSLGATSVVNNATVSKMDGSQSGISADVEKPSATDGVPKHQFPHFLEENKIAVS
Notes: 8-mer, flanks averaged, mean of replicates
`AATTCGCC` has an E-score of -0.0333.
`ATTCGCTA` has an E-score of 0.0847.
For `GGCGAGAC`, the E-score was -0.312.
`CCGATGAC` has an E-score of -0.121.
With `AGGGAGCG` the E-score was -0.232.
For `CGTCCTGA`, the E-score was -0.114.
`AATAGCAC` gave an E-score of -0.0476.
With `CCACGGAG` the E-score was -0.244.
The E-score of `GCAGCCAC` is reported as -0.2.
`CGCTAGAA` has an E-score of -0.0634.
`ATGCGGAG` has an E-score of -0.253.
`AGAATAGC` gave an E-score of 0.0988.
`GCACACCA` has an E-score of -0.25.
`CGGCCCAG` gave an E-score of -0.407.
`ACTTACAT` has an E-score of 0.181.
For `GGTGTCAA`, the E-score was -0.129.
The E-score of `ATGTACAC` is reported as 0.187.
`GAGGCGTA` has an E-score of -0.0518.
`GCCCTTCA` has an E-score of -0.187.

For quick reference, copied from above (set 1):
`TCCATTTTCTAAATTCCCTAGTGCTAG` gave a log fluorescence of 1.09 z-score.
The log fluorescence of `TCACAGTTGAGTTCTGTTACTGTGCTA` is reported as 0.155 z-score.
`TACGGTTCCCTTTTCCTGACGTGCTAG` gave a log fluorescence of 0.446 z-score.
`GAGGGGGCAGGGACTCAGGGGTGCTAG` has a log fluorescence of 0.36 z-score.
The log fluorescence of `GACGATCCCAGTATCGAGACGTGCTAG` is reported as 1.74 z-score.
With `TTTTACATTTTAAGAAATGTGTGCTAG` the log fluorescence was 1.23 z-score.
With `TTAGATATCGGGGTTCGATTAGTGCTA` the log fluorescence was 1.38 z-score.
For `GAAGATATCGGGACTGGAGACGTGCTA`, the log fluorescence was 0.531 z-score.
`TTAGGTTTCCTTTCCCTTAAGTGCTAG` has a log fluorescence of 2.07 z-score.
`GACTGTTTCCTTTTCCTGACGTGCTAG` gave a log fluorescence of 1.45 z-score.
`GACGATTTCAGTCTGGAGACGTGCTAG` has a log fluorescence of 1.08 z-score.
`GACGGACTCGGGACTGGGGACGTGCTA` gave a log fluorescence of -0.457 z-score.
`TTAGAGCTCAGACTGGATTAGTGCTAG` gave a log fluorescence of -0.363 z-score.
`TGTGCATGTGTGTTTTCTGCGTGCTAG` gave a log fluorescence of 0.172 z-score.
